# Published values pooled from the literature.
# Each line is one published result; not all experiments were run side by side.
# Cell line: HCT-116
SMILES,test,setting,endpoint,result
COc1cc(CNC(=O)CCCC/C=C/C(C)C)ccc1OCc1cn(-c2ccc(Cl)c(Cl)c2)nn1,SRB,"10 µM, 48 h",growth percent,107%
COc1cc(/C=N/n2c(C)nc3ccc(Br)cc3c2=O)ccc1OCc1ccc(Cl)cc1,"cell growth or viability, LDH","200 µg/mL, 24 h",viability,93.5%
N#Cc1ccc(-c2csc(NN=Cc3c(F)c(F)c(F)c(F)c3F)n2)cc1,colony formation,"10 µM, 24 h",inhibition,100%
CO[C@H]1C[C@@H]2CC[C@@H](C)[C@@](O)(O2)C(=O)C(=O)N2CCCC[C@H]2C(=O)O[C@H]([C@H](C)C[C@@H]2CC[C@@H](O)[C@H](OC)C2)CC(=O)[C@H](C)/C=C(\C)[C@@H](O)[C@@H](OC)C(=O)[C@H](C)C[C@H](C)/C=C/C=C/C=C/1C,"cell growth or viability, SRB",72 h,GI50,2.3 µM
CC12NC(=O)NC(c3c(ccc4ccccc34)O1)C2C(=O)Nc1ccccc1 (centres unmarked),"cell growth or viability, MTT",10 µM,inhibition,49.3%
COc1cc(CNC(=O)CCCC/C=C/C(C)C)ccc1OCc1cn(-c2ccc(Cl)cc2)nn1,SRB,"10 µM, 48 h",growth percent,63.7%
CC12NC(=O)NC(c3c(ccc4ccccc34)O1)C2C(=O)Nc1cccnc1 (centres unmarked),"cell growth or viability, MTT",10 µM,inhibition,64.6%
COc1cc(CNC(=O)CCCC/C=C/C(C)C)ccc1OCc1cn(-c2ccc([N+](=O)[O-])cc2)nn1,SRB,"10 µM, 48 h",growth percent,77.2%
C#C[C@@]1(O)[C@@H](CO)O[C@@H](n2cc(Cl)c3c(N)ncnc32)[C@@H]1O,"cell growth or viability, SRB",48 h,GI50,0.02 µM
COc1cc(CNC(=O)CCCC/C=C/C(C)C)ccc1OCc1cn(-c2ccccc2Cl)nn1,SRB,"10 µM, 48 h",growth percent,100%
CC12NC(=S)NC(c3c(ccc4ccccc34)O1)C2C(=O)Nc1cccnc1 (centres unmarked),"cell growth or viability, MTT",10 µM,inhibition,45.6%
COc1cc(CNC(=O)CCCC/C=C/C(C)C)ccc1OCc1cn(-c2ccc(C(F)(F)F)cc2)nn1,SRB,"10 µM, 48 h",growth percent,2.97 to 49.1%
Cc1nc2ccccc2c(=O)n1NC(=O)CSc1nc2ccccc2c(=O)n1-c1ccccc1,"cell growth or viability, LDH","200 µg/mL, 24 h",viability,4.75%
COc1cc(CNC(=O)CCCC/C=C/C(C)C)ccc1OCc1cn(-c2ccccc2OC)nn1,SRB,"10 µM, 48 h",growth percent,82.7%
C#C[C@@]1(O)[C@@H](CO)O[C@@H](n2cc(Br)c3c(N)ncnc32)[C@@H]1O,"cell growth or viability, SRB",48 h,GI50,0.028 µM
Cc1ccc(C(C)C)cc1.Cc1ccc(C(C)C)cc1.[Cl][Ru][Cl].[Cl][Ru][Cl],"cell growth or viability, trypan blue",48 h,IC90,1330 µM
CCC(C)Oc1nc(N)nc(N)c1C#N (centres unmarked),"cell growth or viability, SRB",72 h,GI50,73 µM
Cl.Cl.O=C(Nc1ccc(O[C@@H]2CCNC2)c(-c2cccc(-c3nn[nH]n3)c2)c1)c1ccc(O[C@H]2CCNC2)c(-c2ccc(F)c(F)c2)c1,co-immunoprecipitation,β-catenin/BCL9-disrupting concentrations,β-catenin/E-cadherin interaction,no effect
NS(=O)(=O)c1ccc(Nc2nc(OCC3CCCCC3)c3nc[nH]c3n2)cc1,"cell growth or viability, SRB",72 h,GI50,5.7 µM
Cc1ccc(C=NNc2nc(-c3ccc(C#N)cc3)cs2)cc1C,"colony formation, clonogenic","5 µM, 24 h",inhibition,5 to 30%
CCc1ccc(-n2cc(COc3ccc(CNC(=O)CCCC/C=C/C(C)C)cc3OC)nn2)cc1,SRB,"10 µM, 48 h",growth percent,90.7%
N#Cc1ccc(-c2csc(NN=Cc3c(Cl)cccc3Cl)n2)cc1,colony formation,"5 µM, 24 h",inhibition,5 to 50%
NCCC(=O)Nc1ccccc1/N=c1\cc(-c2ccc3nc(N)oc3c2)oc2ccc(F)cc12,"cell growth or viability, CCK-8",1 µM,inhibition,> 70%
N#Cc1ccc(-c2csc(NN=Cc3cccc(F)c3)n2)cc1,colony formation,"5 µM, 24 h",inhibition,5 to 50%
CC12NC(=S)NC(c3c(ccc4ccccc34)O1)C2C(=O)Nc1ccccc1 (centres unmarked),"cell growth or viability, MTT",10 µM,inhibition,68.7%
N#Cc1ccc(-c2csc(NN=Cc3ccccc3F)n2)cc1,colony formation,"10 µM, 24 h",inhibition,100%
CC1=C(C(=O)Nc2ccccc2)C(c2ccc3ccc4cccc5ccc2c3c45)NC(=S)N1 (centres unmarked),"cell growth or viability, MTT",10 µM,inhibition,79.6%
N#Cc1ccc(-c2csc(NN=Cc3sccc3Br)n2)cc1,"colony formation, clonogenic","5 µM, 24 h",inhibition,5 to 30%
Cc1ccc(-n2c(SCC(=O)NNC(=O)Nc3ccccc3)nc3ccccc3c2=O)cc1,annexin V-FITC/PI flow cytometry,"concentration not given, 24 h",total apoptotic cells,46.5%
